# Experimental data of several laboratories.
# A part holds a random share of what one study measured.

# Study 1
# Target: Histone acetyltransferase KAT6A, winged helix 1, GST fusion (KAT6A, Homo sapiens, UniProt Q92794, residues 1-85)
# Technique: protein binding microarray
# Molecule type: double-stranded DNA, one strand shown
# Matrix: in vitro
# Tested at: not given
# Notes: 8-mer, flanks averaged, mean of 2 arrays, mostly near background
# Reference: not given
# Direction: higher = stronger binding
# Construct (chain): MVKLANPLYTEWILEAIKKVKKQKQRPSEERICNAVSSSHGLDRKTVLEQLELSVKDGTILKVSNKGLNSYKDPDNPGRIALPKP
Sequence,E-score
AACCTGAT,-0.186
CTGAATGC,-0.115
AGATTCAG,-0.15
GCAGAGAC,-0.0657
AAAAATAA,-0.164
CAGGGTCG,0.00271
AGGCCGGC,0.282
CGTCGACA,0.0404
TATGTAGA,-0.23
GGGCAAAC,0.0851
CCCCATAC,0.151
AGCTCTTC,-0.0379
AGAGGACT,-0.098
GCAGTTCC,0.0456
ATTACCCC,0.00967
AGTGGGAT,-0.204
CACCGTTA,0.0287
ACACTGCC,0.0367
CGGTTTTA,0.109
AGATTGGG,-0.318

# Study 2
# Target: RNA binding protein fox-1 homolog 2, RRM domain, GST-SBP tag (RBFOX2, Homo sapiens, UniProt O43251-10, residues 100-194)
# Technique: RNA Bind-n-Seq
# Molecule type: RNA
# Matrix: in vitro
# Tested at: 365 nM
# Notes: natural RNA segment, single round, ends assumed
# Reference: no-protein control
# Direction: higher = stronger binding
# Target sequence (chain): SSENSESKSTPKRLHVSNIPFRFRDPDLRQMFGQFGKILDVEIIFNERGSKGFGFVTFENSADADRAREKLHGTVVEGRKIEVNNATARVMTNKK
Sequence,RBNS enrichment (R)
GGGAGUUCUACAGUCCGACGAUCACUGGUGUGGAAUUAAACUCUUAUUGGCCAAAUGCCUGUUUUCAUGAGGUGACUUGUAAAGAUUUUGUUAAGCUCAGGAUUUUUAAUAACACAGUUCACAAAACAGUACAUGGAAUUCUCGGGUGCCAA,0.326
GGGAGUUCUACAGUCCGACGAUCUUCACAAAGGAGUAGGCCAUGUAGGAGAAAGGGAUAGUGACUUAGUCUUAAGGUGACUAAGAUUCACCUCAGCAGAGCCAAUCUUUUUGGGGGGAUGGGAGGGAGACUUAUGGAAUUCUCGGGUGCCAA,0.542
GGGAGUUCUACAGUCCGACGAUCGGUGCGAGGUGUCGGUUCCCUCCUGUCCUGUGGUCCUGCCCCUGGGAUGGGGGUGCCUUGCUCCAGCGGGCUGCAGAUCCCAGCACUGGCGUGACUGACGGCUGAGGCCUUGGAAUUCUCGGGUGCCAA,0.577
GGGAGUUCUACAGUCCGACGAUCUACCACCAUAGAGGAUGAAGACGCUAAAGCCCGGAAGCAGGAGAUCAUUAAGACCACGGAGCAGCUCAUCGAGGCCGUCAACAACGGUGACUUUGAGGCCUACGGGAAAAUGGAAUUCUCGGGUGCCAA,0.227
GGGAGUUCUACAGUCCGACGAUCUGGCUCUCAUUUGCCUCCUCAGAAGAGUGGGACAGGGCUCCAUGGGAGACCCAGAGUUCAGGCUACACACAGCUGUAAAACAGCCCCAAUCCUGACUCUGGCUAUUCGCUUGGAAUUCUCGGGUGCCAA,0.205
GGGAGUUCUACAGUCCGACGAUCAUGCUUAAGAAUAAUUGCCUCUUGGGCAAGAUGAUUGGGCUCCUGGCAAAUGUUCAAUUAAAAAGUGACUAUAGUGAAAAUGAAAUAAAUUAUGGGGGAAAGGUGGCUGUUGGAAUUCUCGGGUGCCAA,1.16
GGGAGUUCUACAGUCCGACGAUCUAGAAAAAAAAGGAGUAAAAGGGGCGGGUUUGUUUUUUGAAGAACUGUCUUGGAUACCUAUUUAAAUGUGUGUUCUGUUUUGUUUUUUAACGAUUUUUAAAUAACGUCUGUGGAAUUCUCGGGUGCCAA,0.904
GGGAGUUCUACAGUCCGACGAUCACUGUGCUAGAUCUUCACUUCGGUGGCGAGUUAUAUCCUACAGCCCUGACACAUCAGGCAAUGAAUAAUGGGGCAGAUGACAGGCUGCUUGGUGUCAUUUUCAGGCGGGCUGGAAUUCUCGGGUGCCAA,0.718
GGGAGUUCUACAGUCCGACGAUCCUUGUUUGCUACAAGCCCUACCCUCCACUCUUUCAUUCCUUGAAAGCAGUUUGCCUGGUCAGUCAGCUUUUGGGGGUCCAUCAAAGGAGGUUGCUGACCUGACCGUGAGUUGGAAUUCUCGGGUGCCAA,0.408

# Study 3
# Target: Interferon regulatory factor 3, full length, phosphomimetic (IRF3, Homo sapiens, UniProt Q14653, residues 1-427, S386D/S396D/S398D/S402D/T404D/S405D)
# Sequence of UniProt Q14653 (whole entry, unmodified, looked up): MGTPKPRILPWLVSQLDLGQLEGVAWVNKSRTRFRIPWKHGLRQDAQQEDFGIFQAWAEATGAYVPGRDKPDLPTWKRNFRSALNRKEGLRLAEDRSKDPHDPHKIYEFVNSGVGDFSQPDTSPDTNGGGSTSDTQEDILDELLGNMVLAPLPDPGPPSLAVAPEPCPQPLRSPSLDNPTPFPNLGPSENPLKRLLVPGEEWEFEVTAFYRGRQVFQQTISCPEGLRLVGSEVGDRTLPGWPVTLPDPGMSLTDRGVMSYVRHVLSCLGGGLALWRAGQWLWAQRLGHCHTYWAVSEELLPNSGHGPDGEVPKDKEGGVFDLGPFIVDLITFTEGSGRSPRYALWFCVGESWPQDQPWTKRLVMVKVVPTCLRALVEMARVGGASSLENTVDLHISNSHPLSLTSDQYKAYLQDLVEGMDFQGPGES
# Technique: protein-binding microarray
# Molecule type: double-stranded DNA, one strand shown
# Matrix: in vitro
# Tested at: 2540 nM top
# Notes: 60-bp whole probe
# With: salmon DNA 0.4 mg/ml
# Reference: random background probes
# Direction: higher = stronger binding
# Shared flanks, not repeated: GCCTAGCAC … GTCTTGATTCGCTTGACGCTGCTG
Sequence,fitted relative affinity
GACGGTTTCCTTATCCTGTCGTGCTAG,8.66 z-score
GACGGTATCGGGTTCGGGACGTGCTAG,2.41 z-score
TGAGATATCGGGACTGGATTAGTGCTA,-0.4 z-score
TTAGGTCTCGGTTTCGATTAGTGCTAG,4.58 z-score
TCAACTCTGGAGGTTGAGACTGTGCTA,-0.438 z-score
TTAGAAGTGAGTATCGATTAGTGCTAG,-0.0423 z-score
GACCGTTTCCTTCTCCTGACGTGCTAG,7.97 z-score
ATTTCTTTCTAATTCAAAGTGTGCTAG,3.8 z-score
GAGGGACTGGGTCTCGGGACGTGCTAG,-1.28 z-score
GAAGGTTTCGACTATCGGGACGTGCTA,2.33 z-score
CACGATATCGGGTATCGAGACGTGCTA,0.206 z-score
TTAGGTCTCCTTATCCTATAGTGCTAG,2.97 z-score
TTAGGACCGCTTATCCTTTAGTGCTAG,0.314 z-score
TTAGGACTGGGGTATCGGTGAGTGCTA,-0.574 z-score
GACGGTATCGACACTGGGAACGTGCTA,0.741 z-score
TCATCTTTCCCTGCCCCATGGTGCTAG,1.85 z-score
TTTGGTTTCGACTATCGGTTAGTGCTA,2.93 z-score
TTAGGTCTCGGTTTCGGTTGGTGCTAG,4.28 z-score
CGAGGTCTCGCTATGTTGTCGTGCTAG,-0.558 z-score
TCATCTCTGTCCCTGTTACTGTGCTAG,0.839 z-score
GGCCTCTCTGTTTTCCTGTTGTGCTAG,0.34 z-score
GACGGACGGGGTCTCGGGACGTGCTAG,-1.02 z-score
TTAGGTTTCGACTATCGGTTAGTGCTA,2.43 z-score
TTAGGTCTCCCTATCCTTTAGTGCTAG,2.18 z-score
TTGAGTTTTCCTTCATGTGCGTGCTAG,2.23 z-score

# Study 4
# Target: RING finger protein unkempt homolog, zinc fingers 1-6, GST-SBP tag (UNK, Homo sapiens, UniProt Q9C0B0, residues 30-357)
# Technique: RNA Bind-n-Seq
# Molecule type: RNA
# Matrix: in vitro
# Tested at: not given
# Notes: RNA with constant flanks, human-mouse chimeric sites, ends assumed
# Reference: input RNA pool
# Direction: higher = stronger binding
# Construct (chain): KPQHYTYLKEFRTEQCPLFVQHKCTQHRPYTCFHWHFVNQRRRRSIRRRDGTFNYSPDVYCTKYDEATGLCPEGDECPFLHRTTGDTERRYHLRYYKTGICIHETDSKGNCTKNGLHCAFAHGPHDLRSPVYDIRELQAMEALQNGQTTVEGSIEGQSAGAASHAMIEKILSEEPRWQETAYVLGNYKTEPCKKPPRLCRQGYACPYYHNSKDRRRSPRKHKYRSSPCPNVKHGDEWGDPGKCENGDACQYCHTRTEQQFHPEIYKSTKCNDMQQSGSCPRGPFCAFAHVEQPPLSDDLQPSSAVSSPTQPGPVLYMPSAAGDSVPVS
Sequence,bound/input enrichment [ratio]
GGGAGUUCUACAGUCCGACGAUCAGAAUCUUGGGACUGUUUUACUUAAUUGGUCAUUGAUAGCUUAACAAACAUGGAGAUGAGAUUAGAAAUCUUGACAUCAACAGGUAUUAAGCAGAAAAAACCAUGGCCCAGAGUAUCCUGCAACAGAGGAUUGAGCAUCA,0.133
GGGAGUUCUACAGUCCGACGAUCUAUUUUUACAGCCACACCAAUCUUGGCAUGUAUUAAGGAAAAAAAAAAUCCCUGUUGAAGUAGUUUUUCCACCUAUCAGCACUGAGUAAAUGCCAUAACUCCGCGGAAAUGGUCUAAAUACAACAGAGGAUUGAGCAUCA,0.202
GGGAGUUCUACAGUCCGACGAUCUUAAUCCCCUUUACUGCUCCACCACUGCUCAUGGUAAUAACAAAGUCUUAUAUCCCCAUAUUAGCUUUCACUCAGAUGGCUUAUGGAGCCGGUUUCCUAGCUUUCUUGGGAGGGAUCAGACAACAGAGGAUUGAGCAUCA,0.356
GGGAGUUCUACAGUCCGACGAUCCCAAUUGUGGAGCAGUACUUGAAGACAAAGAAAAAUUCUAAUAAUUUAAUCAUGAAAUACAUUAGCUGCCGGCUGGUGACACUCAUCAUUAUACUGUUAGCGUGUAUCUACCUGGGCUAUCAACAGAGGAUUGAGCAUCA,0.439
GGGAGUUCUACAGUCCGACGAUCACACAAUAUGAGACCAACAGCAUGGACUUCAAAGUUGGGGCAGAUGGGACAGUCUUCGCCACUAGGGAGCUGCAGGUCCCCUCCGAGCAGGUGGCGUUCACGGUGACUGCGCGGGAAAGCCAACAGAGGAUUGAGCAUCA,0.25
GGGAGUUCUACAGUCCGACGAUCGUGCCCUUCUCGCUGCUGCGGAGCCCGAGCUGGGAACCAUUCCGGGACGACUGGUACGCACACAGCCGCCUCUUCGAUCAAGCUUUCGGGGUGCCCCGGUUGCCCGAUGAGUGGUCGCAGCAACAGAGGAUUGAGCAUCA,0.0904
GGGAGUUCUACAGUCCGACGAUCGCCACCAAUUCCAGCCAACAUGACCCUUGCUGCCUACAAAGAGAAGAUGAAGGAGCUCCCGCUGGUGUCCUUGUUCUGCUCCUGCUUCCUGGCCGAUCCCCUGAAUAAGUCGUCCUACAACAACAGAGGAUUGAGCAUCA,0.37
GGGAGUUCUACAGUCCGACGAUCCUCAGAGAUGUGGCAUAUCAGUAUGUGAAAAAGGGGGCUCGUAUAUUUGUGGAAGGGAAAGUGGACUAUGGCGAGUACAUGGAUAAAAAUAAUGUGAGGCGACAAGCAACAACAAUCAUACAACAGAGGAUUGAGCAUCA,0.495
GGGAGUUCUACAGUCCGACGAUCGUACUGCAGCAGCAGGGCAAGCUGCAGGAAGCUCUGAUGCAUUAUAAGGAGGCUAUUCGAAUCAGUCCUACCUUUGCUGAUGCCUACUCCAAUAUGGGAAACACUCUAAAGGAGAUGCAGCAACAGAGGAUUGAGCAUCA,0.201
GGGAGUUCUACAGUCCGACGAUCAUGGAACAUUUCGAUGCGUCACUCAGUACCUAUUUCAAGGCAUUGCUGGGCCCCCGAGAUACAAGAGUCAAAGGAUGGUUCCUCCUGGACAAUUAUAUCCCUACGUUUGUCUGUUCUGUUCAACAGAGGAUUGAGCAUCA,0.119
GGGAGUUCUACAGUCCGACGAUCUCCCAAAUUAUAAGGCAAGAAGGAGCCUUGAGACAAACACUCCACACGCAGGGAGGGCGAUAACAUUGUACAUUGGUUUACAUUUUUUCCCCCUGUGGAUUUUUCUAGAGGUCAUAGUGCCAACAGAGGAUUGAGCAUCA,0.379

# Repeated from above (study 1):
Sequence,E-score
GCAGAGAC,-0.0657
CAGGGTCG,0.00271
ATTACCCC,0.00967
GGGCAAAC,0.0851
AGAGGACT,-0.098
